Published values from different studies.
Parts stem from different laboratories: compare values within a part only.
Sequence of UniProt Q9HC98 (whole entry, looked up): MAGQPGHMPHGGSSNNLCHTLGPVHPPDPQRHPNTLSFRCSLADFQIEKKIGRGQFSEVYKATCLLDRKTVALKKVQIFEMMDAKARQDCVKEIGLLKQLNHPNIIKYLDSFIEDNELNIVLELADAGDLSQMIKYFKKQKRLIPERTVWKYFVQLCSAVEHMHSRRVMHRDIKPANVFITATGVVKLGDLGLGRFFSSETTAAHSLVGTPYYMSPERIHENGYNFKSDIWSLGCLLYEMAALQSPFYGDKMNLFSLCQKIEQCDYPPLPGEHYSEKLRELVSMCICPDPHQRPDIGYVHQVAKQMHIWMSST
Sequence of UniProt P78356 (whole entry, looked up): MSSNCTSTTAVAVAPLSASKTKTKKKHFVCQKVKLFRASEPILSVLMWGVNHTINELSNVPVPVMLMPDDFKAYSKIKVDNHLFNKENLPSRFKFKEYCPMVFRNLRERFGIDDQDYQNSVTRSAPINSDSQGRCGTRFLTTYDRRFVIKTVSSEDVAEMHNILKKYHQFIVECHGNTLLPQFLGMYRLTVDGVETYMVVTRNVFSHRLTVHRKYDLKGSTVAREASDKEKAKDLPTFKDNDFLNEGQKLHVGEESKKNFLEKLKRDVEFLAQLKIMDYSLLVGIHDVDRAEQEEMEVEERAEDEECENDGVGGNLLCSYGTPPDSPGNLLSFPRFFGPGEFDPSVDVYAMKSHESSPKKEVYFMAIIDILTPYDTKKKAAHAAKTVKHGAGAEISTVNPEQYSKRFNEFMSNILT
Sequence of UniProt P27037 (whole entry, looked up): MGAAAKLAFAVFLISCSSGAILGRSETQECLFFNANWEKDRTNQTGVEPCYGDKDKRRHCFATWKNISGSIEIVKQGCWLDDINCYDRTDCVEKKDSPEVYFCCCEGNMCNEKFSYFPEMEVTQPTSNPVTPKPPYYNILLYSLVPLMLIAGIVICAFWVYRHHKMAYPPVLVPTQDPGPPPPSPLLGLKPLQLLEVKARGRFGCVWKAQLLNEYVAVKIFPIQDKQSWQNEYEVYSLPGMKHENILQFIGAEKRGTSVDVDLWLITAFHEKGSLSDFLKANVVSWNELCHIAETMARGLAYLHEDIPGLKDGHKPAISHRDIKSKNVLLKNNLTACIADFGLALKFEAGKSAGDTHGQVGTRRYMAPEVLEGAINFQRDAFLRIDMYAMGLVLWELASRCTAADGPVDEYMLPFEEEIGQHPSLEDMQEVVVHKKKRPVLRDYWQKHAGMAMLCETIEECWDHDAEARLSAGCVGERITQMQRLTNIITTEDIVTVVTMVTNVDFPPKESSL
Sequence of UniProt O94921 (whole entry, looked up): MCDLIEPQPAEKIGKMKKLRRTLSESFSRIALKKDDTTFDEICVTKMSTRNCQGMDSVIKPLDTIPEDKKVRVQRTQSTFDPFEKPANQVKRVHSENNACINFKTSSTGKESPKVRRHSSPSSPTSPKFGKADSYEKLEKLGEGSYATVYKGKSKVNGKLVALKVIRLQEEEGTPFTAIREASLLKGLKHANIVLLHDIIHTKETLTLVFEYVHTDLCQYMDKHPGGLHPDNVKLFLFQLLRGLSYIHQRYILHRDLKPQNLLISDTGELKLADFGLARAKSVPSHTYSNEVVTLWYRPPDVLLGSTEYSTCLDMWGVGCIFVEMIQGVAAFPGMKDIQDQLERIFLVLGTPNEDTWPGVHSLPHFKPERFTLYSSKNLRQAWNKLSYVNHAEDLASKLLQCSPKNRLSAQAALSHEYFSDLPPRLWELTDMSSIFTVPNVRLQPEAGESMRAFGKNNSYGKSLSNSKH
Sequence of UniProt Q8WU08 (whole entry, looked up): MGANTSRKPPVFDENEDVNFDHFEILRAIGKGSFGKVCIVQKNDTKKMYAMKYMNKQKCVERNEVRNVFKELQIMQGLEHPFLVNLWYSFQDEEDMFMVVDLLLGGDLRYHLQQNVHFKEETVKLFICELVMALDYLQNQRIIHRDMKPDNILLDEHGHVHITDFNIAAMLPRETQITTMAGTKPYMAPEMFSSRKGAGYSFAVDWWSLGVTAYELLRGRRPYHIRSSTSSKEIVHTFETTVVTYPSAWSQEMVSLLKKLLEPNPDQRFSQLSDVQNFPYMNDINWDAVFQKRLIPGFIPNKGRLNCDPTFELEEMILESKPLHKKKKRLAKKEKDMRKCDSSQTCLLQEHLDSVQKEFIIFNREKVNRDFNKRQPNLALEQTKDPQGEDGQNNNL
Sequence of UniProt Q86Y07 (whole entry, looked up): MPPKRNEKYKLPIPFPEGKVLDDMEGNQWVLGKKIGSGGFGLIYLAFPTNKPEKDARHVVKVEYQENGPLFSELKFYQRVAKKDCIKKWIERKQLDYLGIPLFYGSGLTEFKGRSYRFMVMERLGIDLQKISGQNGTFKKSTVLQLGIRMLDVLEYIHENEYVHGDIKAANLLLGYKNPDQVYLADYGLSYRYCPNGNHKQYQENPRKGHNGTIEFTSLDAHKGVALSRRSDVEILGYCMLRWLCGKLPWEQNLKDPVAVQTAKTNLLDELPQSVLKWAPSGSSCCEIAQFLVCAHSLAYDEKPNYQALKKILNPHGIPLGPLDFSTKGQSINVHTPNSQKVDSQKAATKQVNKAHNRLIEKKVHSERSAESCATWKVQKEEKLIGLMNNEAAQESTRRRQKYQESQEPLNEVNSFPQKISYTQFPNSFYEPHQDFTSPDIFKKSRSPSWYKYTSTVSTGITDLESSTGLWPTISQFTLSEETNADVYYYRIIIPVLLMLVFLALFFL
Sequence of UniProt Q16566 (whole entry, looked up): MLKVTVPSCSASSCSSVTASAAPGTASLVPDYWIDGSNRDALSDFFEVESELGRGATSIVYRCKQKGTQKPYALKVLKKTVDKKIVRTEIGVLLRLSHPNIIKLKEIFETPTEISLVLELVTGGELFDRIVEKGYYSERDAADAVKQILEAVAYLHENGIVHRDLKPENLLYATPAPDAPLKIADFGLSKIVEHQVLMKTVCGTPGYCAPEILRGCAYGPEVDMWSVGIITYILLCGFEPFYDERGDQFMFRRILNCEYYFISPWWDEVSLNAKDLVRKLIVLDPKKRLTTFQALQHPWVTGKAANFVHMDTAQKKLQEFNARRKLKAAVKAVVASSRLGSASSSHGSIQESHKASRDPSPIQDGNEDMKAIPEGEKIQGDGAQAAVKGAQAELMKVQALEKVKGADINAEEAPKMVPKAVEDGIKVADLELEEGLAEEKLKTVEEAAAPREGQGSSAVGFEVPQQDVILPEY
Sequence of UniProt Q16832 (whole entry, looked up): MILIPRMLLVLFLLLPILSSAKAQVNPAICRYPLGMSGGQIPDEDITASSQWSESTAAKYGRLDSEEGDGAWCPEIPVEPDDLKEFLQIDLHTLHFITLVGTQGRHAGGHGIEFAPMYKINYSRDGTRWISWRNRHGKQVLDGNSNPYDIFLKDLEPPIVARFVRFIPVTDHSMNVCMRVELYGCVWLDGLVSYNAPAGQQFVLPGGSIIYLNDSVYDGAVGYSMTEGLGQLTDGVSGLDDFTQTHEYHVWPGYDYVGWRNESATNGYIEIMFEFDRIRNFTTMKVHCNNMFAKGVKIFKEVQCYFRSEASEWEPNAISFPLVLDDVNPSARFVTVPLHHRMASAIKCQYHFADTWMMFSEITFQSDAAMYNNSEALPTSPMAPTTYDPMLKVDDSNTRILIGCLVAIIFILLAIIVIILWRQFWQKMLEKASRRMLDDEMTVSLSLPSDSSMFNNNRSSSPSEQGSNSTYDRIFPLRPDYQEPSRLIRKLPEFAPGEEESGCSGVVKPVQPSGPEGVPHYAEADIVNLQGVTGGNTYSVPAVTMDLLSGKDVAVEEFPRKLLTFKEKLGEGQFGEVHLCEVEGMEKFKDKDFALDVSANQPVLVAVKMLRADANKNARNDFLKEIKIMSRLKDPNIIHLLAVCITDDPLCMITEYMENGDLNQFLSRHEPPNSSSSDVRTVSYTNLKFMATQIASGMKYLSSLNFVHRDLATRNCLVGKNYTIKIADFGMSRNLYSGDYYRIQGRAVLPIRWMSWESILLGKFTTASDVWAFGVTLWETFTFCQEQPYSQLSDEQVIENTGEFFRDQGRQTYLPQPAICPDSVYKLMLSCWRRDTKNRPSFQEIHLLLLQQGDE
Sequence of UniProt Q59H18 (whole entry, looked up): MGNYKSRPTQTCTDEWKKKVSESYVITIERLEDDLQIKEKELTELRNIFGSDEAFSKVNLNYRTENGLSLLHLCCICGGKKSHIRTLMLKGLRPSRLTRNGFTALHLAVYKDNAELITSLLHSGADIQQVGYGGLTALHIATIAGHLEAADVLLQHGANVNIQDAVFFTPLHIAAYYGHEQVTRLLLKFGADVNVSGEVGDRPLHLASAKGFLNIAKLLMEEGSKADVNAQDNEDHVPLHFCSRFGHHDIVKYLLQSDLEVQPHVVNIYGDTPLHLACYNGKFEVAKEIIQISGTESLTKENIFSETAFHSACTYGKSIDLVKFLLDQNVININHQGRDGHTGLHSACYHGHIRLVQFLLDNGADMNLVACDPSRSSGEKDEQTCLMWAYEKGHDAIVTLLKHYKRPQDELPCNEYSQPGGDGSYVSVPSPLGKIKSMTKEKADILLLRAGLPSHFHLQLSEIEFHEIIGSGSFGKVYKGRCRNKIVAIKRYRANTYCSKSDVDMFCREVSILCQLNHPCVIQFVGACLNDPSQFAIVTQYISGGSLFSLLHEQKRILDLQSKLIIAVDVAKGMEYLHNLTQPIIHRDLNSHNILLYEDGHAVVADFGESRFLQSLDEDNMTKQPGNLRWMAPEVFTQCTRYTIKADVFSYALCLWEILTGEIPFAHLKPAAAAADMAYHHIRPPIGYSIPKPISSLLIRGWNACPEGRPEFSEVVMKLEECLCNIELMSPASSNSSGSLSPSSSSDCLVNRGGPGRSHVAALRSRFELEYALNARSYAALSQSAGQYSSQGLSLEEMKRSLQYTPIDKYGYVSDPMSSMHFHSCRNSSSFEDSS

Block 1
Species: human
Sample: microsomes or S9
Tested at: 2 µM
Time: 0.5 h
With `CN(C)S(=O)(=O)c1ccc(COc2ccc(-n3ccnc3)cc2)o1` the remaining compound was greater than 99.9%.
`CC(=O)Nc1cccc(C2CCN(C(=O)c3cc4cc(-c5ccc(Cl)cc5)c5ccccc5c4s3)CC2)c1` gave a remaining compound of 79%.
With `Clc1ccccc1Sc1c(C2CC2)n[nH]c1C1CC1` the remaining compound was 22.4%.
For `COc1cc(=O)[nH]cc1C(=O)N1Cc2ccccc2OC(C)(C)C1`, the remaining compound was greater than 99%.
For `COc1ccc(C2CC(c3cccs3)=NN2S(C)(=O)=O)cc1OC` (stereo not drawn), the remaining compound was 11.7%.
For `CN1Cc2ccccc2N(CCN2CCC(c3ccc(Cl)cc3C(=O)NCCN3CCN(C(=O)OC(C)(C)C)CC3)CC2)C1=O`, the remaining compound was 3.95%.
`Cc1cc(C)c(C(=O)c2ccc(C(=O)NC(C)(C)C)cc2)c(C)c1` gave a remaining compound of 6.11%.
`COc1ccc(CN(C(=O)Cn2nnc3ccccc32)C(C(=O)NCCC(C)C)c2ccccc2)cc1` (stereo not drawn) has a remaining compound of 59.4%.
`O=C1[C@@H]2CCCN2/C(=N/c2ccccc2)N1c1ccccc1` has a remaining compound of 67%.

Block 2
Target: Aurora kinase C (AURKC, Homo sapiens, UniProt Q9UQB9)
Read-out: enzyme activity
Action: inhibitor
Tested at: 0.5 µM
Reference: control
Construct (Q9UQB9 1-309): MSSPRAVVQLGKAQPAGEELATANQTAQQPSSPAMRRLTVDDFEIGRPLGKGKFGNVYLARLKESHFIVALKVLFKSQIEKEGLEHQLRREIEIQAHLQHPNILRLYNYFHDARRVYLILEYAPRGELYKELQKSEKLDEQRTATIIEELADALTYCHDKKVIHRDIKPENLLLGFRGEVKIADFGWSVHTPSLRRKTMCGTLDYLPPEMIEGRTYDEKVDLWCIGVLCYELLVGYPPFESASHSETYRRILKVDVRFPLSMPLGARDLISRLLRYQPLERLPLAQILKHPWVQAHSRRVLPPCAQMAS
`CCN1/C(=C/C(C)=O)Sc2ccc(OC)cc21` has a remaining activity of 94.8%.
`C[S+]([O-])c1ccc(-c2nc(-c3ccncc3)c(-c3ccc(F)cc3)[nH]2)cc1` (stereo not drawn) has a remaining activity of 98.5%.
For `CCC(=O)Nc1ccc2ncnc(Nc3cccc(Br)c3)c2c1`, the remaining activity was 102%.
`O=C1NC(=O)/C(=C/c2ccc3nccnc3c2)S1` gave a remaining activity of 95.6%.
The remaining activity of `CCOc1cc2ncnc(Nc3cccc(Br)c3)c2cc1OCC` is reported as 83.7%.
`CC(=O)O/N=C1/C(c2c(O)[nH]c3cc(Br)ccc23)=Nc2ccccc21` has a remaining activity of 86%.
With `Cn1cnc2cc3c(Nc4cccc(Br)c4)ncnc3cc21` the remaining activity was 96.5%.
`CC(C)[C@H](CO)Nc1nc(Nc2cccc(Cl)c2)c2ncn(C(C)C)c2n1` has a remaining activity of 93.2%.
The remaining activity of `COc1ccc(Cl)cc1NC(=O)Nc1cc(C)nc2ccccc12` is reported as 99.9%.
The remaining activity of `Cn1cc(/C=C2\C(=O)Nc3ccc(S(N)(=O)=O)cc32)c2ccccc21` is reported as 37.1%.
`O=C(Nc1ccc(Cl)cc1)c1ccccc1NCc1ccncc1` has a remaining activity of 93.4%.
The remaining activity of `O=c1cc(N2CCOCC2)oc2c1ccc1ccccc12` is reported as 107%.
`Cc1ccc(NC(=O)c2ccc(CN3CCN(C)CC3)cc2)cc1Nc1nccc(-c2cccnc2)n1` has a remaining activity of 119%.
With `COc1cc2ncc(-c3ccccc3)nc2cc1OC` the remaining activity was 90.1%.
`COc1ccc(-c2cnc3c(-c4ccsc4)cnn3c2)cc1` has a remaining activity of 75.3%.
`CC(C)c1nn(-c2c(Cl)cccc2Cl)c2nc(Cc3ccc(OCCO)cc3)[nH]c(=O)c12` has a remaining activity of 87.6%.
With `Nc1[nH]nc2nnc(-c3c(-c4ccccc4)nn4ccccc34)cc12` the remaining activity was 96.4%.
The remaining activity of `COc1cc2ncnc(N3CCN(C(=O)Nc4ccc(Oc5ccccc5)cc4)CC3)c2cc1OC` is reported as 90.3%.
`Cc1nc(Nc2ncc(C(=O)Nc3c(C)cccc3Cl)s2)cc(N2CCN(CCO)CC2)n1` gave a remaining activity of 84.8%.
`CN(C)CCCn1cc(C2=C(c3c[nH]c4ccccc34)C(=O)NC2=O)c2ccccc21` gave a remaining activity of 84.7%.
`COc1cc2ncnc(Nc3ccc(OCc4ccccc4)cc3)c2cc1OC` gave a remaining activity of 84.8%.

Block 3
Structure (SMILES): COc1cc(C(=O)N2CCC(N3CCN(C)CC3)CC2)ccc1Nc1ncc2c(n1)N(C)c1ccccc1C(=O)N2C
Technique: KINOMEscan
Tested at: 10 µM
Reference: DMSO control
Direction: lower = stronger binding
HPK1 — binding: 100%.
For GAK: binding read 16%.
The binding was 95% (CSNK1E).
The binding was 51% (PLK3).
MYLK — binding: 8.7%.
PIK3CD — binding: 62%.
The binding was 28% (CLK1).
PYK2 — binding: 78%.

Block 4
Compound: C[C@@H]1CN(c2cc(-c3nn(C)c4ccc(OC5(C)CC5)cc34)ncn2)C[C@H](C)O1
Technique: competition with immobilised ligand
Tested at: 1 µM
It gave 94% for remaining binding (Aurora kinase B (AURKB, Homo sapiens, UniProt Q96GD4); cell-free assay).
It gave 71% for remaining binding (TNNI3K (Homo sapiens, UniProt Q59H18); cell-free assay).
For FER (Homo sapiens, UniProt P16591); cell-free assay: remaining binding read 100%.
DAPK3 (Homo sapiens, UniProt O43293); cell-free assay — remaining binding: 89%.
It gave 100% for remaining binding (ACVR2A (Homo sapiens, UniProt P27037); cell-free assay).
For CAMK4 (Homo sapiens, UniProt Q16566); cell-free assay: remaining binding read 67%.
The remaining binding was 95% (FLT1 (Homo sapiens, UniProt P17948); cell-free assay).
The remaining binding was 73% (VRK2 (Homo sapiens, UniProt Q86Y07); cell-free assay).
For Tyrosine-protein kinase ABL1, phosphorylated (ABL1, Homo sapiens, UniProt P00519, Y253F); cell-free assay: remaining binding read 80%.
For STK32A (Homo sapiens, UniProt Q8WU08); cell-free assay: remaining binding read 78%.
It gave 79% for remaining binding (MKNK1 (Homo sapiens, UniProt Q9BUB5); cell-free assay).
CILK1 (Homo sapiens, UniProt Q9UPZ9); cell-free assay — remaining binding: 78%.
BLK (Homo sapiens, UniProt P51451); cell-free assay — remaining binding: 95%.
For Tyrosine-protein kinase ABL1, phosphorylated (ABL1, Homo sapiens, UniProt P00519); cell-free assay: remaining binding read 79%.
The remaining binding was 79% (DDR2 (Homo sapiens, UniProt Q16832); cell-free assay).
For CDK14 (Homo sapiens, UniProt O94921); cell-free assay: remaining binding read 100%.
EGFR (Homo sapiens, UniProt P00533, del747-752/P753S); cell-free assay — remaining binding: 92%.
NEK4 (Homo sapiens, UniProt P51957); cell-free assay — remaining binding: 60%.
For Aurora kinase A (AURKA, Homo sapiens, UniProt O14965); cell-free assay: remaining binding read 100%.
For KDR (Homo sapiens, UniProt P35968); cell-free assay: remaining binding read 75%.
The remaining binding was 100% (NEK6 (Homo sapiens, UniProt Q9HC98); cell-free assay).
For PIP4K2B (Homo sapiens, UniProt P78356); cell-free assay: remaining binding read 84%.
CDK11A (Homo sapiens, UniProt Q9UQ88); binding — remaining binding: 100%.
PIK3CA (Homo sapiens, UniProt P42336, Q546K); binding — remaining binding: 39%.
FLT3 (Homo sapiens, UniProt P36888, K663Q); cell-free assay — remaining binding: 100%.

A few entries again (block 3):
The binding was 95% (CSNK1E).
HPK1 — binding: 100%.
The binding was 28% (CLK1).
PYK2 — binding: 78%.
PIK3CD — binding: 62%.
For GAK: binding read 16%.
The binding was 51% (PLK3).
MYLK — binding: 8.7%.
